Earlier results, collected from citations in different studies.
Protocols differ between the studies behind these lines.

The IC50 of `CCOc1ccc(S(=O)(=O)Nc2ccc(Cl)cc2C#Cc2cnc(C(=O)O)cc2OC)c2ncccc12` is reported as 0.638 µM (SLC16A7 and SLC16A8; RT-4 (MCT2+/MCT3+)).
The AUC(0-12h) increase of `O=C(O)C[C@H](O)C[C@H](O)/C=C/c1c(C2CC2)nc2ccccc2c1-c1ccc(F)cc1` is reported as 84% (Sprague Dawley rats; dose not given, with: silymarin; reference: without silymarin).
With `COc1ccc2cc(OCC3(C(=O)O)CN(C(=O)c4ccc(F)cc4)C3)ccc2c1` the IC50 was 9.7 µM (LTB4R).
`Cc1ccccc1C(=O)Nc1ccc(C(=O)N2CCCC(O)c3cc(Cl)ccc32)c(C)c1` (centres unmarked): “decrease in kidney weight/body weight ratio” roughly 10% (RC/RC mouse; dose not given, long-term treatment from 6 months).
For `O=C(Nc1cccnn1)N1CC(CC=Cc2cncc(Oc3ccc(C(F)(F)F)cn3)n2)C1`, the IC50 was greater than 100 µM (FAAH (human); enzyme activity).
`CO[C@H]1/C=C/O[C@@]2(C)Oc3c(C)c(O)c4c(O)c(c(/C=N/N5CCN(C)CC5)c(O)c4c3C2=O)NC(=O)/C(C)=C\C=C\[C@H](C)[C@H](O)[C@@H](C)[C@@H](O)[C@@H](C)[C@H](OC(C)=O)[C@@H]1C` gave a Cmax of 12 µM (mouse; 10 mg/kg).
With `Cc1ccccc1Oc1cc(-n2c(=O)cc(C(F)(F)F)[nH]c2=O)c2ccccc2c1` the IC50 was 6.5 µM (BCAT1; biochemical activity).
`CC(C(=O)O)c1ccc(-c2ccccc2)c(F)c1` (centres unmarked): activity class “inactive” (Toxoplasma gondii; parasite growth; concentration not given, published screen).
